Experimental data from different studies.
A part holds a random share of what one study measured.

Series 1
Target: Centromere-binding protein 1, full length, N-terminal tag (CBF1, Saccharomyces cerevisiae, UniProt P17106, residues 1-351)
Chain of UniProt P17106 (whole entry, looked up): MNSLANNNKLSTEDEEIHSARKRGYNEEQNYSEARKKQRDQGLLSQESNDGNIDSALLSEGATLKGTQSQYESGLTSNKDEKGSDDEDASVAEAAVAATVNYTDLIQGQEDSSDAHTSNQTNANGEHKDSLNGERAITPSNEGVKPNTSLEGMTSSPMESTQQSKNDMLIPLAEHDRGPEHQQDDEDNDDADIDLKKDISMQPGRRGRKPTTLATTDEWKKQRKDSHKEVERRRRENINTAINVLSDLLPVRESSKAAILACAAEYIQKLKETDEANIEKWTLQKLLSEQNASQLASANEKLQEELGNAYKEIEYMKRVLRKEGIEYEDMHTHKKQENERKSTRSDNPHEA
Technique: protein-binding microarray
Form: double-stranded DNA, one strand shown
Medium: in vitro
Concentration: 0.8 µM
Notes: whole 60-bp probe, no competitor
Reading: higher = stronger binding
All sequences stand within: … GTCTTGATTCGCTTGACGCTGCTG
| Oligonucleotide | fluorescence intensity [a.u.] |
| --- | --- |
| GAAAGTATTTTGATTATCATGATGAAGTAAAAGTAG | 568 |
| CTACTGTTAATATTACACATGACAAAAAAGTTGTTC | 1300 |
| GAATTACGCATCCATCAGTTGCCACCCTCCTACTAG | 499 |
| CTAAAACATATAGTCATGGTGGTGTTGACATGTTTC | 523 |
| GAAATTTTTTATGAGCACGTGTTATTTATTCCTTAG | 16100 |
| CTAGTTCATAACTGGCACATGCTTTTCTTCCTTTTC | 742 |
| GAATCTTGCAGACATCAGACATACTATTGTAATTAG | 522 |
| CTAAGTCTGCGGTATAATCACCTGGCCTAGTGCTTC | 727 |
| TGTACGAAGCTATAGCAGGTGTTTATAGTAGTTAGG | 548 |
| GAAGTATCACATGATAGTCACGTGCAGTGATTATAG | 21200 |
| CTAATCAGTTCGTTTCGCGTGATAACAAACAGTTTC | 705 |
| GAAGCACGGTCACTACTCACGAGGAGGCGTGCATAG | 612 |
| CTAGGAAGGTATCATCACGTAAACTAAAACGCATTC | 572 |
| GAATTTAAAAAGCTGCACGTGACTAACTAGAACTAG | 18600 |
| CTATATTCATCATATCGTGAGGTATGTAGGCATTTC | 532 |
| TGTACGAAGCTATCAAGCCTGATTATAGTAGTTAGG | 511 |
| GAAGCAAACGAGAAAAACGTGCCAACCTGGCATTAG | 653 |

Series 2
Target: POU domain, class 5, transcription factor 1, POU domain (Pou5f1, Mus musculus, UniProt P20263, residues 131-289)
Chain of UniProt P20263 (131-289, looked up): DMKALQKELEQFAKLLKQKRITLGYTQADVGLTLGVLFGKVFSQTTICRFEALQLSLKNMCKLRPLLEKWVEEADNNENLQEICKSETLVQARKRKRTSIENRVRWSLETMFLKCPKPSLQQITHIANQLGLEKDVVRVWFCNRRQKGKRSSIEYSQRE
Technique: Spec-seq
Form: double-stranded DNA, one strand shown
Medium: in vitro
Concentration: not given
Notes: whole probe, mean of replicates
Reference: not given
Reading: lower = stronger binding
All sequences stand within: GAGTCGTCTCGTCAGCAC … CCGTAGAGCACTCAGGTC
| Oligonucleotide | relative binding energy [ln ratio] |
| --- | --- |
| ATTCTAAT | -0.455 |
| AACATAAT | 0.121 |
| ATGCCCCT | 0.581 |
| GGAGTAAT | 1.09 |
| ATGCTGAC | 0.223 |
| AGGGTAAT | 0.62 |
| ATTAAAAT | -0.652 |
| ACGGTAAT | 0.286 |
| ATGTACAT | -0.19 |
| ATGCCGTA | 0.699 |
| ATGCAGCA | 0.136 |
| ATATTGAT | -0.136 |
| ATGCAACG | -0.0516 |
| ATGCCTTT | 0.484 |

Series 3
Target: Interferon regulatory factor 5, full length, phosphomimetic (IRF5, Homo sapiens, UniProt Q13568-2, residues 1-514, S451D/S453D/S456D/S462D)
Technique: protein-binding microarray
Form: double-stranded DNA, one strand shown
Medium: in vitro
Concentration: 940 nM top
Notes: 60-bp whole probe
Together with: salmon DNA 0.4 mg/ml
Reference: random background probes
Reading: higher = stronger binding
All sequences stand within: GCCTAGCAC … GTCTTGATTCGCTTGACGCTGCTG
| Oligonucleotide | fitted relative affinity |
| --- | --- |
| TTTTCTCTGGTTCTTGCTTGGTGCTAG | 2.34 z-score |
| TTAGGACTACTTCTCCTTTAGTGCTAG | -0.0113 z-score |
| GACGGTTTCGGGACTGGGCACGTGCTA | 5.98 z-score |
| TCACCTTTCTCTCTGTGACTGTGCTAG | 1.66 z-score |
| GACGGACTGGGTCACGGGACGTGCTAG | -0.785 z-score |
| CTAGGTATCCTACTGCTTTAGTGCTAG | -0.0945 z-score |
| TTAGGTCTCCTGCTCCTTTAGTGCTAG | 0.00613 z-score |
| TCAGATTTCGATTACAAACTGTGCTAG | 1.39 z-score |
| GACGATTTCAGTTTTGAGACGTGCTAG | 0.5 z-score |
| TCAAATATTCATTTTATACTGTGCTAG | 0.462 z-score |
| TTAGATATCGGGTATCGCTTAGTGCTA | 1.44 z-score |
| TCATTTCTCTGGTTCTTACTGTGCTAG | 1.58 z-score |
| AGAGGCGGGAGGGGGCGGGGGTGCTAG | 3.52 z-score |
| TTCTCAACCAGTTTTCTTTTCGTGCTA | 2.02 z-score |

Mixed results
| Substance | target | test | test system | setting | scale | quantity | result |
| --- | --- | --- | --- | --- | --- | --- | --- |
| PhoQ, residues 284 288 289 292 302 303 SSTMSV | PhoP, residues 12 14 15 18 19 NYFTV (Escherichia coli, UniProt P23836) | Sort-seq, item: YFP reporter | E. coli | PhoQ-PhoP variant library, together with: 10 µM Mg2+ | reference: high Mg2+ state, higher = stronger signaling | fold induction | 1.44 |

Excerpt of the above (series 2):
| Oligonucleotide | relative binding energy [ln ratio] |
| --- | --- |
| ATGCTGAC | 0.223 |
| AGGGTAAT | 0.62 |
| ATTAAAAT | -0.652 |
| ACGGTAAT | 0.286 |
| ATGTACAT | -0.19 |
| ATGCCGTA | 0.699 |
| ATGCAGCA | 0.136 |
| ATATTGAT | -0.136 |
